Measurements of several laboratories.
Each line is one published result; not all experiments were run side by side. ± gives the spread as reported.

`O=C(COc1ccc(-c2nc3ccccc3[nH]2)cc1F)N1CCOCC1` has an IC50 of over 100 µM (DND41; cell growth or viability, MTS; 72 h).
`Cc1ccc2nc(NCCN)c3ncc(C)n3c2c1` gave an IC50 of 8.6 µM (BGC-823; cell growth or viability, MTT; 72 h).
For `CC(=O)c1cc([N+](=O)[O-])c(Sc2cccc(Cl)c2Cl)s1`, the IC50 was 6 to 14 µM (MM.1R; cell viability; 48 h).
The IC50 of `C=CCNC1=C2C[C@@H](C)C[C@H](OC)[C@H](O)[C@@H](C)/C=C(\C)[C@H](OC(N)=O)[C@@H](OC)/C=C\C=C(/C)C(=O)NC(=CC1=O)C2=O` is reported as 0.62 µM (Kasumi 1; cell growth or viability).
The IC50 of `O=C(O)Cc1ccccc1Nc1c(Cl)cccc1Cl.c1cnc2c(c1)ccc1cccnc12` is reported as 3.19 ± 1.54 µM (CAL-27; cell viability, MTT; 48 h).
For `CC(C)Oc1ccc(C(=O)Cn2ccnc2)cc1-n1c(CN2CCN(C(=O)COc3ccc(Cl)cc3)CC2)nc2ccccc2c1=O`, the IC50 was under 0.1 µM (SU-DHL-5; cell viability, CellTiter-Glo; 24 h).
The IC50 of `COc1cc(O)c2c(=O)c(O)c(-c3ccc(O)c(O)c3)oc2c1` is reported as 28.8 µM (BV-2; TNF-alpha release, ELISA; 24 h, together with: LPS 10 µg/mL).
For `CNC(=O)c1cc(Oc2ccc(NC(=O)Nc3ccc(Cl)c(C(F)(F)F)c3)cc2)ccn1`, the IC50 was 0.1 µM (MHCC97H cells; cell viability, MTT; concentration not given, together with: pralatrexate 1).
The IC50 of `O=C(NCCCl)Nc1ccc(S(=O)(=O)Oc2cccnc2I)cc1` is reported as 1.8 µM (HT-1080; cell growth or viability, SRB; 48 h).
The IC50 of `O=C1C=C2CCC(F)(F)CC2C(=O)C1` (centres unmarked) is reported as 2.54 µM (rat Synovial cell; cell growth or viability, CCK-8; 48 h).
With `β-secretase inhibitor IV` the IC50 was 0.125 µM (H4 overexpressing human APP Swedish; Abeta40 formation; 24 h).
With `COc1ccc2c(c1O)CCc1cc(O)cc(OC)c1-2` the IC50 was over 20 µM (BV-2; NO release, inhibitor, Griess; LPS-stimulated).
The IC50 of `CC[n+]1c(/C=C/C=C2/N(C)c3ccccc3C2(C)C)sc2ccccc21` is reported as 2.16 ± 0.25 µM (hiPSC hepatic differentiation phase II; cell viability, CCK-8; 48 h).
`C[C@]1([N+](=O)[O-])C(=O)c2ccccc2O[C@@H]1CC(=O)NC12CC3CC(CC(C3)C1)C2` gave an IC50 of 7.31 µM (PC-3M; cell growth or viability, SRB; 96 h).
`O=C(COc1ccc(-c2nc3ccc(Cl)cc3[nH]2)cc1F)N1CCOCC1` has an IC50 of over 100 µM (DND41; cell growth or viability, MTS; 72 h).
The IC50 of `CCNC(=O)Nc1ccc(S(=O)(=O)Oc2cccnc2I)cc1` is reported as 1.1 µM (HT-1080; cell growth or viability, SRB; 48 h).
With `CN1CCN(Cc2ccc(/C=N/NC(=O)Nc3cc4c(Nc5ccc(F)c(Cl)c5)ncnc4cc3O[C@H]3CCOC3)cc2)CC1` the IC50 was 36.3 µM (NCI-H1975; cell growth or viability, MTT; 72 h).
The IC50 of `COc1cc(O)c2c(c1)O[C@H](c1ccc(O)cc1)CC2=O` is reported as 16.9 µM (BV-2; NO release, Griess; 24 h, together with: LPS 10 µg/mL + nicotine 1 µM).
`CN(C)C/C=C/C(=O)Nc1cc2c(Nc3ccc(F)c(Cl)c3)ncnc2cc1O[C@H]1CCOC1` gave an IC50 of 5.1 to 10 µM (MCF7, HCT-116, PC-3, A549; cell growth, MTT; range over cell lines).
The IC50 of `CC(=O)O[C@H]1C(=O)[C@@]2(C)[C@H]([C@H](OC(=O)c3ccccc3)[C@]3(O)C[C@H](OC(=O)[C@H](O)[C@@H](NC(=O)c4ccccc4)c4ccccc4)C(C)=C1C3(C)C)[C@]1(OC(C)=O)CO[C@@H]1C[C@@H]2O` is reported as 0.326 µg/mL (HCT-15; cell growth or viability, XTT; 72 h).
`O=C(N/N=C/c1ccc(N2CCCC2)o1)Nc1cc2c(Nc3ccc(F)c(Cl)c3)ncnc2cc1O[C@H]1CCOC1` has an IC50 of 32.3 µM (NCI-H1975; cell growth or viability, MTT; 72 h).
The IC50 of `O=C1C(SCCO)=C(SCCO)C(=O)c2ccccc21` is reported as 33.5 ± 7.43 µM (hiPSC hepatic differentiation phase II; cell viability, CCK-8; 48 h).
For `COc1ccc(C[C@H]2COC(=O)[C@@H]2Cc2ccc(OCC(=O)NCCCCC(=O)Nc3ccccc3N)c(OC)c2)cc1OC`, the IC50 was over 5 µM (Kasumi 1; cell growth or viability, CCK-8; 48 h).
`O=C(COc1ccc(-c2nc3ccccc3[nH]2)cc1)N1CCOCC1` has an IC50 of at least 50.2 µM (DND41; cell growth or viability, MTS; 72 h).
`CCCNC(=O)Nc1ccc(S(=O)(=O)Oc2cccnc2I)cc1` has an IC50 of 4 µM (HT-1080; cell growth or viability, SRB; 48 h).
`Nc1cc(F)ccc1NC(=O)c1ccc(CNC(=O)/C=C/c2cccnc2)cc1` has an IC50 of over 5 µM (Kasumi 1; cell growth or viability, CCK-8; 48 h).
For `COc1cc([C@@H]2c3cc4c(cc3[C@@H](O[C@@H]3O[C@@H]5CO[C@@H](C)O[C@H]5[C@H](O)[C@H]3O)[C@H]3COC(=O)[C@H]23)OCO4)cc(OC)c1O`, the IC50 was 1.74 µg/mL (HCT-15; cell growth or viability, XTT; 72 h).
With `Fc1ccc2nc(-c3ccc(OCc4cn(CCN5CCOCC5)nn4)c(F)c3)[nH]c2c1` the IC50 was 41.6 µM (DND41; cell growth or viability, MTS; 72 h).
For `O=C(OCCC12CC3CC(CC(C3)C1)C2)c1ccc(NCc2cc(O)ccc2O)cc1`, the IC50 was 5.85 ± 0.97 µM (HEK293 NF-κB-luc stable; NF-κB luciferase reporter, inhibitor; 6 h, together with: TNF-α 2 ng/mL).
With `Fc1cc(-c2nc3ccccc3[nH]2)ccc1OCc1cn(CCN2CCOCC2)nn1` the IC50 was 46.9 µM (DND41; cell growth or viability, MTS; 72 h).
For `navitoclax`, the IC50 was 0.0438 µM (H146; cell viability, MTS; 48 h).
For `O=C(C=Cc1ccccc1)C(=CC1=CC=C[CH]1[Fe][CH]1C=CC=C1)C(=O)/C=C/c1ccccc1` (centres unmarked), the IC50 was 5.64 µM (RKO; cell growth or viability, MTT).
`CCCCCCCCCCCCCC(=O)OC[C@H](COP(=O)([O-])OCC[N+](C)(C)C)OC(=O)CCCCCCCCCCCCC` has an IC50 of 231 µM (MDA-MB-435S; cell growth or viability, MTT; 72 h).
With `COc1cc([C@@H]2c3cc4c(cc3[C@@H](O[C@@H]3O[C@@H]5CO[C@@H](C)O[C@H]5[C@H](O)[C@H]3O)[C@H]3COC(=O)[C@H]23)OCO4)cc(OC)c1O` the IC50 was 1 µM (DND41; cell growth or viability, MTS; 72 h).
For `O=C(/C=C/c1ccc(O)cc1)CC(=O)/C=C/c1ccc(OC(=O)C2=CC=C[CH]2[Fe][CH]2C=CC=C2)cc1` (centres unmarked), the IC50 was 46.6 µM (RKO; cell growth or viability, MTT).
With `C=C1[C@H](CO)[C@@H](O)C[C@@H]1n1cnc2c(=O)[nH]c(N)nc21` the IC50 was 0.24 ± 0.04 µM (HepG2.A64, resistant mutant; cell growth, CCK-8; 96 h).
With `O=C(N/N=C/c1ccc(CN2CCCCC2)cc1)Nc1cc2c(Nc3ccc(F)c(Cl)c3)ncnc2cc1O[C@H]1CCOC1` the IC50 was 3.97 µM (NCI-H1975; cell growth or viability, MTT; 72 h).
For `Cc1ccc(C(CS(=O)(=O)c2ccccc2)=NNc2nc(-c3ccc(OCCCCOc4ccc(-c5csc(NN=C(CS(=O)(=O)c6ccccc6)c6ccc(C)cc6)n5)cc4)cc3)cs2)cc1`, the IC50 was 17.1 µM (WM 266-4; cell growth or viability, MTT; 48 h).
`COc1cc(-c2nc3ccc(C(=O)Nc4ccc(C)cc4)cc3[nH]2)cc(OC)c1OC` gave an IC50 of 15.1 ± 1.62 µM (MRC5 fetal lung fibroblasts; cytotoxicity, MTT; 72 h).
With `CC(=O)C(=O)O` the IC50 was 420 ± 90 µM (PANC-03-27; glucose-induced ECAR; 20 min).
`COc1ccc(C[C@H]2COC(=O)[C@@H]2Cc2ccc(OCCCCCC(=O)NO)c(OC)c2)cc1OC` has an IC50 of over 5 µM (Kasumi 1; cell growth or viability, CCK-8; 48 h).
`CCN(CC)c1ccc(/C=N/NC(=O)Nc2cc3c(Nc4ccc(F)c(Cl)c4)ncnc3cc2OC)cc1` has an IC50 of 40.3 µM (NCI-H1975; cell growth or viability, MTT; 72 h).
`O=C(/C=C/c1ccc(O)cc1)C(=CC1=CC=C[CH]1[Fe][CH]1C=CC=C1)C(=O)/C=C/c1ccc(O)cc1` (centres unmarked) has an IC50 of 7.66 µM (RKO; cell growth or viability, MTT).
The IC50 of `COc1cccc(/C=C/C(=O)/C=C/c2cccc(OC)c2OC)c1OC` is reported as 3.9 µM (BGC-823; cell growth or viability, MTT; 72 h).
For `O=C(N/N=C/c1ncc(N2CCOCC2)s1)Nc1cc2c(Nc3ccc(F)c(Cl)c3)ncnc2cc1O[C@H]1CCOC1`, the IC50 was 16.3 µM (NCI-H1975; cell growth or viability, MTT; 72 h).
With `[Ala11,D-Leu15]orexin B` the IC50 was 0.0229 ± 0.0016 µM (rat cortical primary neurons; cAMP formation, antagonist; 15 min, together with: VIP 3 µM).
For `CC[C@@]1(O)C(=O)OCc2c1cc1n(c2=O)Cc2cc3c(CN(C)C)c(O)ccc3nc2-1`, the IC50 was 4.81 µM (MT330; cell growth or viability).
`O=C(N/N=C/c1ccc(CN2CCOCC2)cc1)Nc1cc2c(Nc3ccc(F)c(Cl)c3)ncnc2cc1O[C@H]1CCOC1` has an IC50 of 65.2 µM (NCI-H1975; cell growth or viability, MTT; 72 h).
The IC50 of `CCCNC(=O)Nc1ccc(S(=O)(=O)Oc2cnccc2I)cc1` is reported as 3.1 µM (HT-1080; cell growth or viability, SRB; 48 h).
`COc1ccc(CC(=O)Nc2nc3ccccc3n2Cc2ccccc2)cc1` gave an IC50 of 8.12 ± 3.86 µM (MDA-MB-231-HRE-Luc cells; HIF reporter gene, inhibitor; 24 h, hypoxia 1% O2).
The IC50 of `C[C@]1([N+](=O)[O-])C(=O)c2cc(F)ccc2O[C@@H]1CC(=O)NC12CC3CC(CC(C3)C1)C2` is reported as 5.66 µM (PC-3M; cell growth or viability, SRB; 96 h).
`CCCCCCNC(=O)n1cc(F)c(=O)[nH]c1=O` has an IC50 of 213 µM (MDA-MB-435S; cell growth or viability, MTT; 72 h).
`CC[PH](CC)(CC)[Au][S][C@@H]1O[C@H](COC(C)=O)[C@@H](OC(C)=O)[C@H](OC(C)=O)[C@H]1OC(C)=O` gave an IC50 of 2.6 µM (A2780cisR; cell growth or viability, MTT; 72 h, drug-resistant strain).
With `O=C(/C=C/c1ccc(F)cc1)C(=CC1=CC=C[CH]1[Fe][CH]1C=CC=C1)C(=O)/C=C/c1ccc(F)cc1` (centres unmarked) the IC50 was 5.08 µM (RKO; cell growth or viability, MTT).
With `CCN(CCO)CCCC(C)Nc1ccnc2cc(Cl)ccc12` (centres unmarked) the IC50 was 0.8 ± 0.38 µM (human PBMC; IFN-alpha release; human; together with: SLE patient serum immune complexes).
With `COc1cc2[nH]c(C)c(-c3ccc(-c4ccc(OC(F)(F)F)cc4)cc3)c(=O)c2cc1F` the IC50 was 26 µM (HeLa and HCT-116 average; cell viability, MTT; 48 h).
`COc1cc2ncnc(Nc3ccc(F)c(Cl)c3)c2cc1NC(=O)N/N=C/c1ccc(CN2CCCCC2)cc1` gave an IC50 of 63.4 µM (NCI-H1975; cell growth or viability, MTT; 72 h).
The IC50 of `COC(=O)c1c(-c2cccc(OC)c2)c2n(c1C(=O)OC)CCn1cccc1-2` is reported as 85.5 µM (PC-3; cell growth or viability, MTT; 48 h).
`O=S(=O)(Nc1cc(Sc2ccccc2)c(O)c2ccccc12)c1c(F)c(F)c(F)c(F)c1F` gave an IC50 of 0.8 to 1.9 µM (AML cell lines; item: phospho-STAT3 (Tyr); 30 min pretreatment, together with: G-CSF).

Repeated from above:
The IC50 of `O=C(NCCCl)Nc1ccc(S(=O)(=O)Oc2cccnc2I)cc1` is reported as 1.8 µM (HT-1080; cell growth or viability, SRB; 48 h).
The IC50 of `O=C1C=C2CCC(F)(F)CC2C(=O)C1` (centres unmarked) is reported as 2.54 µM (rat Synovial cell; cell growth or viability, CCK-8; 48 h).
With `β-secretase inhibitor IV` the IC50 was 0.125 µM (H4 overexpressing human APP Swedish; Abeta40 formation; 24 h).
With `COc1ccc2c(c1O)CCc1cc(O)cc(OC)c1-2` the IC50 was over 20 µM (BV-2; NO release, inhibitor, Griess; LPS-stimulated).
The IC50 of `CC[n+]1c(/C=C/C=C2/N(C)c3ccccc3C2(C)C)sc2ccccc21` is reported as 2.16 ± 0.25 µM (hiPSC hepatic differentiation phase II; cell viability, CCK-8; 48 h).
`C[C@]1([N+](=O)[O-])C(=O)c2ccccc2O[C@@H]1CC(=O)NC12CC3CC(CC(C3)C1)C2` gave an IC50 of 7.31 µM (PC-3M; cell growth or viability, SRB; 96 h).
`O=C(COc1ccc(-c2nc3ccc(Cl)cc3[nH]2)cc1F)N1CCOCC1` has an IC50 of over 100 µM (DND41; cell growth or viability, MTS; 72 h).
